Assay results collected from several papers.
Each numbered part is a random draw from the data of one study; scales do not carry over between parts.
UniProt Q8TD19, sequence (whole entry, looked up): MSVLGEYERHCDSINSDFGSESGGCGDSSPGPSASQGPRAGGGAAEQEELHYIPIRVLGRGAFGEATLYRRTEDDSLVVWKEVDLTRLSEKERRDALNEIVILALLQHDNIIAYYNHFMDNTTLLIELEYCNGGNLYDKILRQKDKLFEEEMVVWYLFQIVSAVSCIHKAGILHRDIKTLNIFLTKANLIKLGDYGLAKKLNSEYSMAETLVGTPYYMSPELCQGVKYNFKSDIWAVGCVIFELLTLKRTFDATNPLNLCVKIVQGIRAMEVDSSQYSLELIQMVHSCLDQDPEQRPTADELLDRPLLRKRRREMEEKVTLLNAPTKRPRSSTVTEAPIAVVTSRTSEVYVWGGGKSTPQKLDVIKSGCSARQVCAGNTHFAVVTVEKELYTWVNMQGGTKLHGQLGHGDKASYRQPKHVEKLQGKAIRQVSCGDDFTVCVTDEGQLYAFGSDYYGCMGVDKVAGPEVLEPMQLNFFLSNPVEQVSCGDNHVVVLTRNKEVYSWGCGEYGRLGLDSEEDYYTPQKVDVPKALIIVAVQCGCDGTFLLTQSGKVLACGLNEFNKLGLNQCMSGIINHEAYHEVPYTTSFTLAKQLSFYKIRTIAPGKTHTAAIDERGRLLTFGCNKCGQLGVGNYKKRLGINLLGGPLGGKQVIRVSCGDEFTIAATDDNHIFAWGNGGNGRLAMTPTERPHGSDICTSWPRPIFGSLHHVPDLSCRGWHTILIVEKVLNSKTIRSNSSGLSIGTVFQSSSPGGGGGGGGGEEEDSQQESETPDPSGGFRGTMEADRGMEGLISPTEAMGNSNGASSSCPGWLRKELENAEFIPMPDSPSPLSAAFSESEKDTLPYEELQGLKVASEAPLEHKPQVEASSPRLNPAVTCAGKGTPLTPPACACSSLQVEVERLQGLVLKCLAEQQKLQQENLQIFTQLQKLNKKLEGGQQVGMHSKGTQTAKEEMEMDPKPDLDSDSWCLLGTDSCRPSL
UniProt Q02779, sequence (whole entry, looked up): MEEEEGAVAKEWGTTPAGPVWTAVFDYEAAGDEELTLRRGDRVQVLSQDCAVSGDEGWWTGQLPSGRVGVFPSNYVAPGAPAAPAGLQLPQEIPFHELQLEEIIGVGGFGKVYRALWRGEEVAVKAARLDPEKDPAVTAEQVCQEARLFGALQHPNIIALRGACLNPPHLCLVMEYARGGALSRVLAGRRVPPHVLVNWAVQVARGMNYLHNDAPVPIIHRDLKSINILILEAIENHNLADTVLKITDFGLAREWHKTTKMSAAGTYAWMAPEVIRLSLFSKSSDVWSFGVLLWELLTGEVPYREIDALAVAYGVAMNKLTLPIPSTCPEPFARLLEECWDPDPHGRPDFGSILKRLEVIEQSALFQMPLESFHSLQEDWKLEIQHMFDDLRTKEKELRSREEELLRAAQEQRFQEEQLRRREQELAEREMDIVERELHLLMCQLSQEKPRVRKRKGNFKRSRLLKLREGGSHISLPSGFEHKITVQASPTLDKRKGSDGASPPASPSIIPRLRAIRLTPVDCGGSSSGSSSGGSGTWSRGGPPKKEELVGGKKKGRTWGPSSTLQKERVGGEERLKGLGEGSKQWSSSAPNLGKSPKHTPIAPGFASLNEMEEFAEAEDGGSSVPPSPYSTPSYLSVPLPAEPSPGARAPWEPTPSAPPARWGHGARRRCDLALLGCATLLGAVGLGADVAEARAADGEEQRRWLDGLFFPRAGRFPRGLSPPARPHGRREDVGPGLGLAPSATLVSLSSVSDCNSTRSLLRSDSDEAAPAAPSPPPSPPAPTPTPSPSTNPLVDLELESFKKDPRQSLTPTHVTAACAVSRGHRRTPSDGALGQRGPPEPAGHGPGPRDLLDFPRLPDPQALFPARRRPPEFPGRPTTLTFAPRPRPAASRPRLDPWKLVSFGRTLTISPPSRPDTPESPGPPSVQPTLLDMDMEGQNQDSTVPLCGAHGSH
UniProt O14976, sequence (whole entry, looked up): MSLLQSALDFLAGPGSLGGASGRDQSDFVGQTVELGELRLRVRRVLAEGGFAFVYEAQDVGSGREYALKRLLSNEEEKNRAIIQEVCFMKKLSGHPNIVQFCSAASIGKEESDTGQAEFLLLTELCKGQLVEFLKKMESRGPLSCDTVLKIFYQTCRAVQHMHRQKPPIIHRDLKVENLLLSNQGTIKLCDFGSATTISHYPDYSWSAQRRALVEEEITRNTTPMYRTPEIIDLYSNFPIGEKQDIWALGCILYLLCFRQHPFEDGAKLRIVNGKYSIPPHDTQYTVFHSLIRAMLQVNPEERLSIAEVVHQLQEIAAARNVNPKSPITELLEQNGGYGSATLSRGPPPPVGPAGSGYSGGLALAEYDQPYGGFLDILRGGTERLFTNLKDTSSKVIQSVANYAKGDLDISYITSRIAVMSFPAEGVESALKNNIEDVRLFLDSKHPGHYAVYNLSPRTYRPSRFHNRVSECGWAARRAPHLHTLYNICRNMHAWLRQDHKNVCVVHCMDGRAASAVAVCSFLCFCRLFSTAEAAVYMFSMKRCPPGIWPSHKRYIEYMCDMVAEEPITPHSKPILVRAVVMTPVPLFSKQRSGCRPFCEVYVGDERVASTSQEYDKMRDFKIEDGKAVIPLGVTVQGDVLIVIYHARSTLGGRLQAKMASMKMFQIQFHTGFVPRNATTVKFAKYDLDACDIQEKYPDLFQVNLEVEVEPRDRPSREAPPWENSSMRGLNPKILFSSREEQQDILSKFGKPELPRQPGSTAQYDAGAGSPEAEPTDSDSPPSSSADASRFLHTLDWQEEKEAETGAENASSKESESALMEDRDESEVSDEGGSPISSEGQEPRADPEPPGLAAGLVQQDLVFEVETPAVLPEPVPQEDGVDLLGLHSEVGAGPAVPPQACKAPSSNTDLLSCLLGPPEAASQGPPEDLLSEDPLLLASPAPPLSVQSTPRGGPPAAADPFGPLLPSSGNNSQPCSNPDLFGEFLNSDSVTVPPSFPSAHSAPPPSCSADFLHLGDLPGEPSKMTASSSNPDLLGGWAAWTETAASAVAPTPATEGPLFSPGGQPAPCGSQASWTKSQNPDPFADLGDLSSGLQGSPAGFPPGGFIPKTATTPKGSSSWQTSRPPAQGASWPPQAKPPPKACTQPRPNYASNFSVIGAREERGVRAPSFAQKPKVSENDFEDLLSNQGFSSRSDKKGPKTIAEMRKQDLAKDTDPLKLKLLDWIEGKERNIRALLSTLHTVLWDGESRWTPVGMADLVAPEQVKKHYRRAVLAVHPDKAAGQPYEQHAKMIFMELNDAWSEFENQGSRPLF
UniProt P35968, sequence (whole entry, looked up): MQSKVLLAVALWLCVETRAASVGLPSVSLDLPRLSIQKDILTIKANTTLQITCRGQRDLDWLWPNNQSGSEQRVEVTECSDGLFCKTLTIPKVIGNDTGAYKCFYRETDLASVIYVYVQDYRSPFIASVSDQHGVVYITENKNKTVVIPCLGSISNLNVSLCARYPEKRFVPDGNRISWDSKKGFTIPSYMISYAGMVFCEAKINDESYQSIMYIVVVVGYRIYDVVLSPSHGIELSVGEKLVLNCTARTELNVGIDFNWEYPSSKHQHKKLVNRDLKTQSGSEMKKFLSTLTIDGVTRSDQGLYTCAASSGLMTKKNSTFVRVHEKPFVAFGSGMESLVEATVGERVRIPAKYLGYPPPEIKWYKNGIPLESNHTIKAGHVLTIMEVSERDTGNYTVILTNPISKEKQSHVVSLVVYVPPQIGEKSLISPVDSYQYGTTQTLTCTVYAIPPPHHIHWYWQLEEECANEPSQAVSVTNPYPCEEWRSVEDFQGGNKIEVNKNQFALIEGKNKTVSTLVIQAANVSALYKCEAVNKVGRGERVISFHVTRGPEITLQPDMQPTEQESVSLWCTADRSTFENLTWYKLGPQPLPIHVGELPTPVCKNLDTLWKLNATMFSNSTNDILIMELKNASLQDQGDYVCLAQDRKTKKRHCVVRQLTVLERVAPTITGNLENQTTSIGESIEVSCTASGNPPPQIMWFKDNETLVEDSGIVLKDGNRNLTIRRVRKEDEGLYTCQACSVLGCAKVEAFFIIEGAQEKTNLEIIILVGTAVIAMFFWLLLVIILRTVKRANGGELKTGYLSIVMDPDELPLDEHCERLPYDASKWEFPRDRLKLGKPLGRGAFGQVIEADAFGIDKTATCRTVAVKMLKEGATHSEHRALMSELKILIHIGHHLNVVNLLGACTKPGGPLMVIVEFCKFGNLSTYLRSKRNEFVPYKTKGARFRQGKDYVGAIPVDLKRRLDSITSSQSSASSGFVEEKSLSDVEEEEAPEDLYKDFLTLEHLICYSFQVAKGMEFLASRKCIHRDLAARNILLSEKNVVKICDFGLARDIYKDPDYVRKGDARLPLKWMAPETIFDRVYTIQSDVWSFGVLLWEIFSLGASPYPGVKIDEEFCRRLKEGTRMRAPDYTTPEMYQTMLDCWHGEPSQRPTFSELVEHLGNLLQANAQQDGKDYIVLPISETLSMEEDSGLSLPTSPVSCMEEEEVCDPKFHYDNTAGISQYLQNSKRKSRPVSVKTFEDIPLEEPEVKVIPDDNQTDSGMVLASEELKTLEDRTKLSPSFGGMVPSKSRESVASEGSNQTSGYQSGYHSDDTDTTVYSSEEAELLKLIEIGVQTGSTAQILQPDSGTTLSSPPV

Study 1 — effect on: enzyme activity; action: inhibitor; tested at: 10 µM
Target: Calcium/calmodulin-dependent protein kinase type II subunit alpha (CAMK2A, Homo sapiens, UniProt Q9UQM7)
UniProt Q9UQM7, sequence (whole entry, looked up): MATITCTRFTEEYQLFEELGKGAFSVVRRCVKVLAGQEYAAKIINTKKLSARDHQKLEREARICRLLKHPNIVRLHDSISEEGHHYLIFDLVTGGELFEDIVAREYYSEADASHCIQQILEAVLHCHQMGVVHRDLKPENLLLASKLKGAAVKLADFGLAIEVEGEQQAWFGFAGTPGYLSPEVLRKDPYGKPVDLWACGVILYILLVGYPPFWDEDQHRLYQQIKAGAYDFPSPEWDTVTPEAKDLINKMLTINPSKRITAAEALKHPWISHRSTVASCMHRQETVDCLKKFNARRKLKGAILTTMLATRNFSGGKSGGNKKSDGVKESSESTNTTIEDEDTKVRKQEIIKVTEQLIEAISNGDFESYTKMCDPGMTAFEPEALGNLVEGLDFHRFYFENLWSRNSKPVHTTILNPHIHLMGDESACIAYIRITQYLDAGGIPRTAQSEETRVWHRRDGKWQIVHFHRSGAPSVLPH
| SMILES | inhibition [%] |
| --- | --- |
| COc1ccc2ccc(=O)oc2c1 | -13 |
| Cc1ccc(-c2ncc(Cl)cc2-c2ccc(S(C)(=O)=O)cc2)cn1 | 10 |
| CCCCC1C(=O)N(c2ccccc2)N(c2ccccc2)C1=O | -6 |
| CCOc1ccc2ccccc2c1C(=O)N[C@@H]1C(=O)N2[C@@H]1SC(C)(C)[C@@H]2C(=O)O | 1 |
| CS/C=C/C(=O)NCCO[C@@H]1O[C@H](CO)[C@@H](O)[C@H](O)[C@H]1O | 19 |
| CC(C)(Oc1ccc(C2CC2(Cl)Cl)cc1)C(=O)O (centres unmarked) | -1 |
| COc1cc(/C=C/C=O)ccc1O | -25 |
| COC(=O)C1=CO[C@@H](O[C@@H]2O[C@H](CO)[C@@H](O)[C@H](O)[C@H]2O)[C@@H]2[C@@H](C)[C@@H](O)C[C@H]12 | -18 |
| CC1(C)CC[C@]2(C(=O)O)CC[C@]3(C)C(=CC[C@@H]4[C@@]5(C)C[C@H](O)[C@H](O)[C@@](C)(C(=O)O)[C@@H]5CC[C@]43C)[C@@H]2C1 | -51 |
| CN(CCCCCCCCCCN(C)C(=O)Oc1cccc([N+](C)(C)C)c1)C(=O)Oc1cccc([N+](C)(C)C)c1 | -14 |
| C[C@@H]1O[C@@H](O[C@H]2[C@H](OC(=O)[C@]34CCC(C)(C)C[C@H]3C3=CC[C@@H]5[C@@]6(C)C[C@H](O)[C@H](O[C@@H]7O[C@H](CO)[C@@H](O)[C@H](O[C@@H]8O[C@H](CO)[C@@H](O)[C@H](O)[C@H]8O)[C@H]7O)C(CO)(CO)[C@@H]6CC[C@@]5(C)[C@]3(C)C[C@H]4O)OC[C@H](O)[C@@H]2O)[C@H](O)[C@H](O)[C@H]1O[C@@H]1OC[C@@H](O)[C@H](O[C@@H]2OC[C@](O)(CO)[C@H]2O)[C@H]1O | 73 |
| O=C1O[C@H](CO)[C@@H](O)[C@H](O)[C@H]1O | -34 |

Study 2 — technique: competition with immobilised ligand; tested at: 1 µM
Structure (SMILES): CCCOc1ccc([C@H]2[C@H](C(=O)O)[C@@H](c3ccc4c(c3)OCO4)CN2CC(=O)Nc2c(CC)cccc2CC)cc1
| target | effect on | remaining binding [%] |
| --- | --- | --- |
| MAP3K10 (Homo sapiens, UniProt Q02779) | cell-free assay | 100 |
| STK32C (Homo sapiens, UniProt Q86UX6) | cell-free assay | 100 |
| KDR (Homo sapiens, UniProt P35968) | cell-free assay | 77 |
| Tyrosine-protein kinase ABL1, non-phosphorylated (ABL1, Homo sapiens, UniProt P00519, F317I) | binding | 76 |
| PRKACB (Homo sapiens, UniProt P22694) | cell-free assay | 87 |
| STK33 (Homo sapiens, UniProt Q9BYT3) | cell-free assay | 65 |
| KIT (Homo sapiens, UniProt P10721, T670I/V559D) | cell-free assay | 87 |
| EPHA3 (Homo sapiens, UniProt P29320) | cell-free assay | 86 |
| MAST1 (Homo sapiens, UniProt Q9Y2H9) | cell-free assay | 93 |
| SBK3 (Homo sapiens, UniProt P0C264) | cell-free assay | 94 |
| Tyrosine-protein kinase ABL1, non-phosphorylated (ABL1, Homo sapiens, UniProt P00519, Q252H) | cell-free assay | 61 |
| MAPK3 (Homo sapiens, UniProt P27361) | cell-free assay | 93 |
| CDKL1 (Homo sapiens, UniProt Q00532) | cell-free assay | 66 |
| PDPK1 (Homo sapiens, UniProt O15530) | cell-free assay | 100 |
| NEK11 (Homo sapiens, UniProt Q8NG66) | cell-free assay | 59 |

Study 3 — effect on: kinase activity; action: inhibitor; tested at: 1 µM
SMILES: CC(C)S(=O)(=O)c1ccc2nccc(Nc3ccc4sc(C5CCCC5)nc4c3)c2c1.Cl
| target | remaining activity [%] |
| --- | --- |
| MAP4K2 (Homo sapiens, UniProt Q12851) | 90 |
| PLK2 (Homo sapiens, UniProt Q9NYY3) | 109 |
| ACVRL1 (Homo sapiens, UniProt P37023) | 95 |
| CDC42BPA (Homo sapiens, UniProt Q5VT25) | 95 |
| GSK3A (Homo sapiens, UniProt P49840) | 81 |
| NEK9 (Homo sapiens, UniProt Q8TD19) | 90 |
| MAP3K7 (Homo sapiens, UniProt O43318) | 101 |
| BMP2K (Homo sapiens, UniProt Q9NSY1) | 99 |
| MAP3K10 (Homo sapiens, UniProt Q02779) | 96 |
| PDGFRA (Homo sapiens, UniProt P16234) | 107 |
| GAK (Homo sapiens, UniProt O14976) | 103 |
| EIF2AK2 (Homo sapiens, UniProt P19525) | 111 |
| PIM1 (Homo sapiens, UniProt P11309) | 100 |
| CDK9 (Homo sapiens, UniProt P50750) | 96 |
| NUAK1 (Homo sapiens, UniProt O60285) | 113 |
| BMX (Homo sapiens, UniProt P51813) | 80 |
| SGK1 (Homo sapiens, UniProt O00141) | 112 |

Study 4 — Compound: CCc1[nH]c(-c2ccc(OC)cc2)nc1-c1ccncc1; effect on: enzyme activity; action: inhibitor; tested at: 0.5 µM; baseline: control
| target | remaining activity [%] |
| --- | --- |
| Cyclin-dependent kinase 2, with cyclin A (CDK2, Homo sapiens, UniProt P24941) | 99.5 |
| Aurora kinase A (AURKA, Homo sapiens, UniProt O14965) | 93.7 |
| CAMK1D (Homo sapiens, UniProt Q8IU85) | 104 |
| CDK7 (Homo sapiens, UniProt P50613) | 97.3 |
| NTRK3 (Homo sapiens, UniProt Q16288) | 103 |
| EGFR (Homo sapiens, UniProt P00533) | 103 |
| ROS1 (Homo sapiens, UniProt P08922) | 91.8 |
| SLK (Homo sapiens, UniProt Q9H2G2) | 99.7 |
| CSNK2A2 (Homo sapiens, UniProt P19784) | 95.3 |
| DYRK4 (Homo sapiens, UniProt Q9NR20) | 100 |
| PKN2 (Homo sapiens, UniProt Q16513) | 95.7 |
| MAP3K2 (Homo sapiens, UniProt Q9Y2U5) | 98.2 |
| DMPK (Homo sapiens, UniProt Q09013) | 102 |
| RET (Homo sapiens, UniProt P07949) | 99.2 |
| ROCK2 (Homo sapiens, UniProt O75116) | 101 |
| PTK2B (Homo sapiens, UniProt Q14289) | 94.6 |
| NEK9 (Homo sapiens, UniProt Q8TD19) | 101 |
| PRKD1 (Homo sapiens, UniProt Q15139) | 100 |
| BRSK1 (Homo sapiens, UniProt Q8TDC3) | 101 |
| MAP3K8 (Homo sapiens, UniProt P41279) | 95 |
| HIPK3 (Homo sapiens, UniProt Q9H422) | 106 |
| CAMK1G (Homo sapiens, UniProt Q96NX5) | 98 |
| GRK5 (Homo sapiens, UniProt P34947) | 107 |
| MAPK10 (Homo sapiens, UniProt P53779) | 100 |

Some of these lines once more (study 2):
| target | effect on | remaining binding [%] |
| --- | --- | --- |
| PRKACB (Homo sapiens, UniProt P22694) | cell-free assay | 87 |
| STK33 (Homo sapiens, UniProt Q9BYT3) | cell-free assay | 65 |
| KIT (Homo sapiens, UniProt P10721, T670I/V559D) | cell-free assay | 87 |
| EPHA3 (Homo sapiens, UniProt P29320) | cell-free assay | 86 |
| MAST1 (Homo sapiens, UniProt Q9Y2H9) | cell-free assay | 93 |
| SBK3 (Homo sapiens, UniProt P0C264) | cell-free assay | 94 |
| Tyrosine-protein kinase ABL1, non-phosphorylated (ABL1, Homo sapiens, UniProt P00519, Q252H) | cell-free assay | 61 |
| MAPK3 (Homo sapiens, UniProt P27361) | cell-free assay | 93 |
| CDKL1 (Homo sapiens, UniProt Q00532) | cell-free assay | 66 |
